Measurements pooled from the literature.
Lines come from different studies, so protocols differ. ± marks the error that the study gave.

For CCCCCOc1ccc(-c2ccc(-c3ccc(C(=O)N[C@H]4C[C@@H](O)[C@@H](O)NC(=O)[C@@H]5[C@@H](O)[C@@H](C)CN5C(=O)[C@H]([C@@H](C)O)NC(=O)[C@H]([C@H](O)[C@@H](O)c5ccc(O)cc5)NC(=O)[C@@H]5C[C@@H](O)CN5C(=O)[C@H]([C@@H](C)O)NC4=O)cc3)cc2)cc1, the clearance was 0.283 mL/min/kg (population PK model; patients aged sample A to < sample B years; intravenous, 200 mg loading, 100 mg once daily, median, weight-corrected).
CCCCCCCCCCCC[N+](C)(C)CCCCCCCCCCCC has a hepatic clearance of 0.488 mL/h/g liver (in vitro-in vivo extrapolation; human).
The MRT of O[C@H]1CCCN[C@@H]1CCCn1cnc2c(Cl)c(Cl)ccc21 is reported as 4.7 h (healthy human volunteers, plasma; oral, 50 mg, day 1, multiple ascending dose).
CN1CCC(Nc2ncc3ncnc(Nc4ccc(F)c(Cl)c4)c3n2)CC1 has an intrinsic clearance of 127 ± 7.08 mL/min/kg (Gottingen minipig, male, liver S9 without NADPH; 1 µM, pH 7.4).
CC(=O)N[C@H](CCCCNC(=O)C(C)F)C(=O)N[C@@H](CS)C(=O)N[C@@H](CS)C(=O)N[C@@H](CCC(=O)O)C(=O)N[C@@H](Cc1c[nH]cn1)C(=O)N[C@H](Cc1ccccc1)C(=O)N[C@@H](CCCNC(=N)N)C(=O)N[C@@H](Cc1c[nH]c2ccccc12)C(=O)N[C@@H](CS)C(=O)N[C@@H](CCCNC(=N)N)C(=O)N1CCC[C@H]1C(=O)N[C@H](C(N)=O)C(C)C (stereo partly drawn) [fluorine-18 labelled] has a tissue uptake of 0.68 ± 0.37 %ID/g (C57BL/6 mice, male, B16-F10 tumour, bone; intravenous, 2 h).
Under “fast intercompartmental clearance”, CCCCCCCCCCCC(=O)NCCCC[C@H](NC(=O)[C@@H](NC(=O)[C@@H](NC(=O)[C@H](C)NC(=O)[C@H](C)NC(=O)[C@H](CCCCN)NC(=O)[C@H](CCCCN)NC(=O)[C@H](CS)NC(=O)[C@H](CCCCN)NC(=O)[C@@H]1CCCN1C(=O)[C@H](CC(C)C)NC(=O)[C@@H](NC(=O)[C@H](Cc1c[nH]c2ccccc12)NC(=O)[C@H](CC(C)C)NC(=O)[C@@H](N)CCCCN)C(C)C)C(C)C)C(C)C)C(N)=O is recorded as 5 mL/h (three-compartment model; Sprague Dawley rat, plasma; intravenous, 2.5 mg).
With Cc1cccc2c1ccc1cc(C(C)C)ccc12 the internal concentration was about 500 µM (zebrafish embryos, whole fish tissue; waterborne, 30 µM, 24 hpf, 1% DMSO).
With CN[C@@](C)(C[18F])C(=O)O the tumour uptake was 6.9 ± 3.3 %ID/g (SCID mice (SK-OV-3 xenograft); 120 min after injection).
For COc1ccc(-c2cc(=O)c3c(OC)c(OC)c(OC)c(OC)c3o2)cc1OC, “tissue to peel content ratio” read 0.021% (C57BL/6 mouse, male, kidney; oral, 1% w/w in diet, 6 weeks, orange peel extract diet; baseline: content in orange peel).
CSCC[C@H](N)C(=O)N[C@@H](CC(N)=O)C(=O)N[C@@H](Cc1ccccc1)C(=O)N[C@@H](CCCNC(=N)N)C(=O)N1CCC[C@H]1C(=O)NCC(=O)N[C@H](C(=O)N[C@@H](CC(C)C)C(=O)N[C@@H](CO)C(=O)N[C@@H](CO)C(=O)N[C@@H](CCCNC(=N)N)C(=O)N[C@@H](CCC(N)=O)C(=O)N[C@@H](CC(C)C)C(=O)NCC(=O)N[C@@H](CC(C)C)C(=O)N1CCC[C@H]1C(=O)NCC(=O)N1CCC[C@H]1C(=O)N1CCC[C@H]1C(=O)N[C@@H](CC(=O)O)C(=O)N[C@H](C(=O)N1CCC[C@H]1C(=O)N[C@@H](CC(=O)O)C(=O)N[C@@H](Cc1c[nH]cn1)C(=O)N[C@@H](C)C(=O)N[C@@H](C)C(=O)N[C@@H](Cc1ccc(O)cc1)C(=O)N[C@@H](Cc1c[nH]cn1)C(=O)N1CCC[C@H]1C(=O)N[C@@H](Cc1ccccc1)C(=O)O)C(C)C)C(C)C — result for “change in serum concentration”: -11.7 ± 20% (LC-MS/MS; human serum; concentration not given, 4 h, room temperature, tube without gel separator; baseline: initial concentration).
For Cc1cnc(C(=O)N[C@H]2CCCCC/C=C\[C@@H]3C[C@@]3(C(=O)NS(=O)(=O)C3CC3)NC(=O)[C@@H]3C[C@@H](Oc4nc5ccccc5c5ccccc45)CN3C2=O)cn1, the AUC(0-24) was 5870 ng·h/mL (healthy human volunteers, plasma; oral, dose not given, with: warfarin plus 2D regimen).
The tissue/plasma ratio of [123I]c1cncc(OC[C@@H]2CCN2)c1 is reported as 15 (SPECT; human, temporal lobe; intravenous bolus plus infusion, 8.1 mCi; baseline: plasma).
